Measured values of several laboratories.
Each numbered part is a random draw from the data of one study; scales do not carry over between parts.

Sample 1
Target: Histone acetyltransferase KAT6A, winged helix 2, GST fusion (KAT6A, Homo sapiens, UniProt Q92794, residues 85-181)
Method: protein binding microarray
Molecule type: double-stranded DNA, one strand shown
Medium: in vitro
Tested at: not given
Notes: 8-mer, flanks averaged, mean of 2 arrays, mostly near background
Baseline: not given
Direction: higher = stronger binding
Target sequence (chain): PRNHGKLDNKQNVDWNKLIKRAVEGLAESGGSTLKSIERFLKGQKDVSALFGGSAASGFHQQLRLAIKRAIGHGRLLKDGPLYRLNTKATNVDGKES
Sequence	E-score
CTTCAATA	-0.153
CATCTTCG	0.0277
AATACTGA	-0.133
ATTCAGCG	-0.0309
CTGTAAGC	0.00925
ACGTCTTG	-0.183
CTGTTGAA	0.114
AGAGGTGA	-0.0271
GTAGTCCA	-0.0344

Sample 2
Substance: PhoQ, residues 284 288 289 292 302 303 NLCILV
Method: Sort-seq
Measured: YFP reporter
Medium: E. coli
Notes: PhoQ-PhoP variant library
With: 10 µM Mg2+
Baseline: high Mg2+ state
Direction: higher = stronger signaling
target	fold induction
PhoP, residues 12 14 15 18 19 QQAYL (Escherichia coli, UniProt P23836)	12.2
PhoP, residues 12 14 15 18 19 LFHKL (Escherichia coli, UniProt P23836)	0.442
PhoP, residues 12 14 15 18 19 GMGLL (Escherichia coli, UniProt P23836)	4.05

Sample 3
Target: Sal-like protein 4, full length isoform A (SALL4, Homo sapiens, UniProt Q9UJQ4, residues 1-1053)
Chain of UniProt Q9UJQ4 (whole entry, looked up): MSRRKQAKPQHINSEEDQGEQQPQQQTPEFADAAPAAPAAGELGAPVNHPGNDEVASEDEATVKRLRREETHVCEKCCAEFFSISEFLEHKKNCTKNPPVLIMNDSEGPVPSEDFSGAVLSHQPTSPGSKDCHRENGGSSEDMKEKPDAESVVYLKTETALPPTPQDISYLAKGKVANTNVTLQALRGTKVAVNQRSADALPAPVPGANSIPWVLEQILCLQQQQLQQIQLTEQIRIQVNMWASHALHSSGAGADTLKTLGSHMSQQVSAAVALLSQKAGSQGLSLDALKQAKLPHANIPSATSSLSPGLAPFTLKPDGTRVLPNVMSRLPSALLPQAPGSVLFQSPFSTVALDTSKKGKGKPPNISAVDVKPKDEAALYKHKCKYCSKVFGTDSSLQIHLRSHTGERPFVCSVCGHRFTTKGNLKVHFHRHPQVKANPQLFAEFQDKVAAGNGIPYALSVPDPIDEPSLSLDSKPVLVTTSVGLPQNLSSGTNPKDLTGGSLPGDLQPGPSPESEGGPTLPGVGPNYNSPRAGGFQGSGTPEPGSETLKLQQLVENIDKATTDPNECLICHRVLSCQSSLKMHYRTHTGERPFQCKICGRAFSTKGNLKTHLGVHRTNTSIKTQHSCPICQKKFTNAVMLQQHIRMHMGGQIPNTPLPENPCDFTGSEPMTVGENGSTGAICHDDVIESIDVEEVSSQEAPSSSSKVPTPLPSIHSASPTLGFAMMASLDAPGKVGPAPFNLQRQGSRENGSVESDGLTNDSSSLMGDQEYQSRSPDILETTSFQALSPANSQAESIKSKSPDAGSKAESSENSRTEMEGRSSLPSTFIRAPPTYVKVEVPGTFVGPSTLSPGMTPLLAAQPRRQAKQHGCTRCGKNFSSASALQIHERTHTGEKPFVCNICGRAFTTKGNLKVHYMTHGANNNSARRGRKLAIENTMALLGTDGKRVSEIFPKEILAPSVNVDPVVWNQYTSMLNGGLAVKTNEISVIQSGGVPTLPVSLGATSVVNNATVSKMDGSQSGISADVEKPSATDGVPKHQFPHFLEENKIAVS
Method: universal PBM
Molecule type: double-stranded DNA, one strand shown
Medium: in vitro
Tested at: 600 nM
Notes: 8-mer, flanks averaged, mean of replicates
Direction: higher = stronger binding
Sequence	E-score
GAAAATGC	0.0872
CCCTGTGA	-0.196
CCTACAGA	-0.0369
CGCGAAAG	-0.182
GACATTCA	0.0511
CACGGACC	-0.314
ACTGACAA	0.0701
AAACCAAG	0.0963
CAGTAACG	0.0477

Sample 4
Target: Ras GTPase-activating protein-binding protein 1, full length (G3BP1, Homo sapiens, UniProt Q13283)
Chain of UniProt Q13283 (whole entry, looked up): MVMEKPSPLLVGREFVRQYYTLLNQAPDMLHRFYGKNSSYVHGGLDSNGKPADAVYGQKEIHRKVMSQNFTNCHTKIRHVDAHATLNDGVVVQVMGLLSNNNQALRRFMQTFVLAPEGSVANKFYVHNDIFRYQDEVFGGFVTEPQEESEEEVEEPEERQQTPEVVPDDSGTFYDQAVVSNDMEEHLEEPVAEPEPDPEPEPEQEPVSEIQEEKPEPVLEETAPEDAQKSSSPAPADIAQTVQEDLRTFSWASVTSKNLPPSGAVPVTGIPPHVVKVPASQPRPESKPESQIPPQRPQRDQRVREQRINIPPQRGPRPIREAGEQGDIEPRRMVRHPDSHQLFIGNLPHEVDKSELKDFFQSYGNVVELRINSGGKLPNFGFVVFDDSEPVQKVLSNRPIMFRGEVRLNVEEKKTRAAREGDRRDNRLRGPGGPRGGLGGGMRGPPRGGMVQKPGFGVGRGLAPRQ
Method: RNA Bind-n-Seq
Molecule type: RNA
Medium: in vitro
Tested at: 200 nM
Notes: whole 134-nt RNA, ends assumed
With: 150 mM KCl
Baseline: input library
Direction: higher = stronger binding
Constant ends, left off below: GGGAGUUCUACAGUCCGACGAUC … UGGAAUUCUCGGGUGUCAAGG
Sequence	log2 enrichment
CAAGUCCUGUGCUACACAUCGUAUGUACCGAAUCGGAAAGGAAAGGUUUUUUUGGAAAGUAUUAUGUUACGCCGUUCGGAUCUGCACUUC	-1.3
UCAAGUCCUGUGCUACACAUCGUAUGUACCGAAUCGGGGUUGGGUUGGGGUUGGGAAAGUAUUAUGUUACGCCGUUCGGAUCUGCACUUC	0.835
CACAGACAACACGCCCCCACACAGACACAGAGGGAAGGGGUUGGGAUGGGGACAGGGUGCACAGCAGGGCGGGGUAGGACCCCAGCCCCU	2.12
GCAGGAAGUAAAAACAAAUGGAAAUGCUUCGGAUAGUGGCAGGGGUGGGGGUUGCUAAGGAAAGGGUGGGAUGGGAGAGGGUAAAGAGUU	1.37
UAACUUUAGAGGAGGAUCUGAUGGAUAUGGCAGUGGACGUGGAUUUGGGGAUGGCUAUAAUGGGUAUGGAGGAGGACCUGGAGGUGGCUA	0.385

A few entries again (sample 3):
Sequence	E-score
CCTACAGA	-0.0369
CGCGAAAG	-0.182
